Assay results from different studies.
Parts stem from different laboratories: compare values within a part only. ± gives the spread as reported.

Study 1 — organism: SARS-CoV-2 Wuhan spike VSV pseudovirus; read-out: pseudovirus entry; tested at: concentration not given; measurement: inhibition
COC(=O)c1ccc(NC(=O)C2CCN(c3c(C#N)cnc4ccccc34)CC2)cc1: 36%
Cc1ccc(C(=O)C2=C(O)C(=O)N(CC(C)C)C2c2cccc(O)c2)cc1 (stereo not drawn): 36%
COc1ccccc1C(=O)N1C2CCC1c1cnc(-c3ccc(F)cc3)nc1C2 (stereo not drawn): 41%
O=C1CCCN1c1ccc(Cn2nc3c(S(=O)(=O)N4CCCC4)cccn3c2=O)cc1: 44%
O=C(Cn1ncc(Cl)c(Cl)c1=O)NCCC1=CCCCC1: 44%
CCOC(=O)c1c(-c2ccc(N(C)C)cc2)n(C)c2cc(-c3cccnc3)c(O)cc12: 51%
COc1ccc(C(CC(=O)N2CCN(c3cnccn3)CC2)c2ccccc2)cc1 (stereo not drawn): 38%
Cc1cc(C(=O)N2CCC3(CCCN(CCCc4ccccc4)C3=O)C2)n[nH]1 (stereo not drawn): 40%
COc1ccc(-c2ccnc(N)n2)cc1: 41%
CCn1cc(CNC(=O)c2ccc3oc(-c4ccc(C(F)(F)F)cc4)nc3c2)cn1: 39%
CCOC(=O)c1ccc2c(c1)[C@@H]1C=CC[C@@H]1[C@H](c1ccccc1OCc1ccccc1)N2: 43%
CC(=O)OC(C(=O)Oc1ccc2c(c1)C(C)=CC(C)(C)N2)c1ccccc1 (stereo not drawn): 38%
Clc1ccc(-c2noc(CN3CCN(c4ncnc5ccccc45)CC3)n2)cc1: 40%
COc1ccc2cc3c(N)nn(C(=O)c4ccccc4Cl)c3nc2c1: 43%
CCC1Oc2ccc(S(=O)(=O)N3CCN(C(=O)c4cc5ccccc5oc4=O)CC3)cc2NC1=O (stereo not drawn): 41%

Mixed results
rep nsp12 RdRp: Replicase polyprotein 1ab, nsp12 RdRp (rep, Severe acute respiratory syndrome coronavirus 2, UniProt P0DTD1)
rep papain-like protease: Replicase polyprotein 1ab, papain-like protease (rep, Severe acute respiratory syndrome coronavirus 2, UniProt P0DTD1)
rep nsp14: Replicase polyprotein 1ab, nsp14 (rep, Severe acute respiratory syndrome coronavirus 2, UniProt P0DTD1)
CC12CC3CC1(C)CC3(CN)C2
inhibition (Matrix protein 2 (Influenza A virus, UniProt P0DOF5, S31N); concentration not given, pH 5.5, cell-based): 0%

SLVAVTAAQSTIEEQAKTFLDKHN
relative binding (SARS-CoV-2 spike RBD; peptide spot array; peptide; concentration not given; baseline: wild-type ACE2 peptide): 3.78

O=C(O[C@@H]1O[C@@H]2COC(=O)c3cc(O)c(O)c(O)c3-c3c(cc(O)c(O)c3O)C(=O)O[C@H]([C@H]1O)[C@@H]2O)c1cc(O)c(O)c(O)c1
BLI response (rep nsp12 RdRp; binding, biolayer interferometry; 50 µM): 0.18 nm

CCC(CC)[C@H](NC(C)=O)[C@@H]1[C@H](O)[C@@H](C(=O)O)C[C@H]1N=C(N)N
IC50 (neuraminidase (Influenza B virus, UniProt A0A1S5RAG6, I221T)): 23.6 ± 7.3 nM

O=C(Cc1ccccc1)Nc1nnc(CCSCCc2nnc(NC(=O)Cc3ccccc3)s2)s1
activity (rep papain-like protease; concentration not given, C111S mutant; baseline: positive control): 25.8%

Cc1c(-c2ccnn2C)cc(C(=O)NCc2ccc(S(C)(=O)=O)cn2)c(=O)n1-c1cccc(C(F)(F)F)c1
BLI response (rep nsp12 RdRp; binding, biolayer interferometry; concentration not given): -0.01 nm

Cc1ccc(NS(=O)(=O)c2cccc(C(=O)NC3CCN(c4ncnc5[nH]cnc45)CC3)c2)cc1
inhibition (rep nsp14; 0.7812 µM): 26.1%

O=c1[nH]cnc2c([C@@H]3N[C@H](CO)[C@@H](O)[C@H]3O)c[nH]c12
EC50 (SARS-CoV-2; viral RNA copies; Vero C1008, Omicron BA.1; 48 h): 690 ± 40 nM

CNC12CC3CC(CC(C3)O1)C2
inhibition (Matrix protein 2 (Influenza A virus, UniProt P0DOF5, V27A); concentration not given, pH 5.5, cell-based): 0%

CCC(CC)COC(=O)[C@H](C)N[P@](=O)(OC[C@H]1O[C@@](C#N)(c2ccc3c(N)ncnn23)[C@H](O)[C@@H]1O)Oc1ccccc1
EC90 (SARS-CoV-2 Delta; viral replication; Calu-3): 2000 ± 500 nM

SLVAVTAAQSTIEEQAKTFLDKFS
relative binding (SARS-CoV-2 spike RBD; peptide spot array; peptide; concentration not given; baseline: wild-type ACE2 peptide): 3.67

N#C[C@@]1(n2ccc(N)nc2=O)O[C@H](CO)[C@@H](O)[C@H]1O
EC50 (SARS-CoV-2; viral replication; Vero, Alpha): 600 ± 10 nM

CC(C)=CCNc1ncnc2c1ncn2[C@@H]1O[C@H](CO)[C@@H](O)[C@H]1O
EC50 (SARS-CoV-2; infectious virus yield; Vero C1008, Omicron BA.1; 48 h): ~400 nM

O=C(NC1CCN(c2ncnc3[nH]cnc23)CC1)c1cccc(S(=O)(=O)N2CCC2)c1
inhibition (rep nsp14; NSP14 enzyme activity, inhibitor; 0.7812 µM): 11.1%

COc1ccc2nc([S@@+]([O-])Cc3ncc(C)c(OC)c3C)[nH]c2c1
activity (rep papain-like protease; concentration not given, C111S mutant; baseline: positive control): 25.2%

Some of these lines once more (study 1):
COc1ccc(C(CC(=O)N2CCN(c3cnccn3)CC2)c2ccccc2)cc1 (stereo not drawn): 38%
Cc1cc(C(=O)N2CCC3(CCCN(CCCc4ccccc4)C3=O)C2)n[nH]1 (stereo not drawn): 40%
COc1ccc(-c2ccnc(N)n2)cc1: 41%
